Measurements from different studies.
Compare with care: the assays were run in different laboratories. ± marks the error that the study gave.
Cell line: PC-3

SMILES	read-out	technique	refers to	medium	time	IC50
O=C1NC(=NCc2cccs2)S/C1=C\c1ccc2ncccc2c1		MTS		prostate cancer		> 10000 nM
CCCOc1ccc2c(C)c(CC)c(=O)oc2c1C	cell viability	MTT				152 µg/mL
C[C@H](CCC(=O)O)[C@H]1CC[C@H]2[C@@H]3CC[C@@H]4C[C@H](O)CC[C@]4(C)[C@H]3CC[C@]12C	cell viability	MTT			72 h	51000 ± 600 nM
CCC(=O)N1CCC(COCC(=O)N2CCN(c3nc(-c4cnc(N)nc4C(F)F)nc(N4CCOC[C@@H]4C)n3)CC2)CC1		western blot	phospho-PKB/Akt Ser473		2 h	183 nM
Cc1c(Cc2ccccc2)c(=O)oc2c(C)c(OCC(=O)NN=Cc3ccc([N+](=O)[O-])cc3)ccc12	cytotoxicity					23100 nM
Cc1nc(NC(=O)N2CCC[C@H]2C(N)=O)sc1-c1ccnc(C(C)(C)C(F)(F)F)c1		western blot	phospho-S6 Ser235/Ser236		2 h	1650 nM
O=C1NCCc2[nH]c(-c3ccncc3)cc21		MTS		prostate cancer		9180 nM
COc1cc(C(=O)c2nc(-c3cccc4c3CCN4)c[nH]2)cc(OC)c1OC	cell proliferation	MTS			72 h	22.1 ± 3.3 nM
C[C@H](Nc1ccc2c(c1)OCCn1cc(N3C(=O)OC[C@H]3C(F)F)nc1-2)C(N)=O		western blot	phospho-PKB/Akt Ser473		2 h	1210 nM
